Assay results gathered from unrelated publications.
Each numbered part is a random draw from the data of one study; scales do not carry over between parts. “And” joins repeats or separate records; there may be more than shown.
Sequence of UniProt Q8N4C8 (whole entry, looked up): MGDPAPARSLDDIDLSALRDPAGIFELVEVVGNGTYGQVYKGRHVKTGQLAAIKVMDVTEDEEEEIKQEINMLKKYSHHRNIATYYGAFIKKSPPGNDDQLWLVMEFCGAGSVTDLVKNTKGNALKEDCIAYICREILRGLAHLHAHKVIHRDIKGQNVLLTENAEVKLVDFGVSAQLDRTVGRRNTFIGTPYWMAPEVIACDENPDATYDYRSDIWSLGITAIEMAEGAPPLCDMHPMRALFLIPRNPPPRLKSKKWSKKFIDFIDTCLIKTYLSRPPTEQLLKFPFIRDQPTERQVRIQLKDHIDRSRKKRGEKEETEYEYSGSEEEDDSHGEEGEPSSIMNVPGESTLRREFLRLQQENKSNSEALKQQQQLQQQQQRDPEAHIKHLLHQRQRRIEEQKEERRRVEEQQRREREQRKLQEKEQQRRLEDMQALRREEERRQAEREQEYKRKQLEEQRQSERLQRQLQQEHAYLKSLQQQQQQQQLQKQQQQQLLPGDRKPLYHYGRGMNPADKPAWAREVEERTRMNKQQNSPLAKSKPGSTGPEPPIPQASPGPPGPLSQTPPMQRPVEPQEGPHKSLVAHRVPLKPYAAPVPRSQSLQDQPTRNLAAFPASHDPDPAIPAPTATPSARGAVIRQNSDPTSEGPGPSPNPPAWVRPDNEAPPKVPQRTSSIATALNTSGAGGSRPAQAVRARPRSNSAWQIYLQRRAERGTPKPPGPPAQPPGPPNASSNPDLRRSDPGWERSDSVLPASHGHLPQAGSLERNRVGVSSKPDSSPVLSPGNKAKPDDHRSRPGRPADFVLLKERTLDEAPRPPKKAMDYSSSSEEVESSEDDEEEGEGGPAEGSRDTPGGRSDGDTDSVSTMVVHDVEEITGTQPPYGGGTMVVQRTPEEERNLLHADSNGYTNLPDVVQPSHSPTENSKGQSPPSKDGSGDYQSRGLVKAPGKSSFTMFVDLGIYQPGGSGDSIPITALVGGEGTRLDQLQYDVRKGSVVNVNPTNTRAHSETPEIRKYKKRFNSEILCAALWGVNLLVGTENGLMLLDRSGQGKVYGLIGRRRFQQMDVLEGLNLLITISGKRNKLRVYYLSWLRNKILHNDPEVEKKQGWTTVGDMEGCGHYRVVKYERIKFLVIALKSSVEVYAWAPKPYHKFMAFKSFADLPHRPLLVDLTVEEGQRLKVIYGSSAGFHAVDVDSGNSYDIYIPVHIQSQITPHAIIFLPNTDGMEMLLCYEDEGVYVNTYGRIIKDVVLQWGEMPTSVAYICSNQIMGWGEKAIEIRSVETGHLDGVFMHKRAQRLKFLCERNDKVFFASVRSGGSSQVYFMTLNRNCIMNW
Sequence of UniProt P51812 (whole entry, looked up): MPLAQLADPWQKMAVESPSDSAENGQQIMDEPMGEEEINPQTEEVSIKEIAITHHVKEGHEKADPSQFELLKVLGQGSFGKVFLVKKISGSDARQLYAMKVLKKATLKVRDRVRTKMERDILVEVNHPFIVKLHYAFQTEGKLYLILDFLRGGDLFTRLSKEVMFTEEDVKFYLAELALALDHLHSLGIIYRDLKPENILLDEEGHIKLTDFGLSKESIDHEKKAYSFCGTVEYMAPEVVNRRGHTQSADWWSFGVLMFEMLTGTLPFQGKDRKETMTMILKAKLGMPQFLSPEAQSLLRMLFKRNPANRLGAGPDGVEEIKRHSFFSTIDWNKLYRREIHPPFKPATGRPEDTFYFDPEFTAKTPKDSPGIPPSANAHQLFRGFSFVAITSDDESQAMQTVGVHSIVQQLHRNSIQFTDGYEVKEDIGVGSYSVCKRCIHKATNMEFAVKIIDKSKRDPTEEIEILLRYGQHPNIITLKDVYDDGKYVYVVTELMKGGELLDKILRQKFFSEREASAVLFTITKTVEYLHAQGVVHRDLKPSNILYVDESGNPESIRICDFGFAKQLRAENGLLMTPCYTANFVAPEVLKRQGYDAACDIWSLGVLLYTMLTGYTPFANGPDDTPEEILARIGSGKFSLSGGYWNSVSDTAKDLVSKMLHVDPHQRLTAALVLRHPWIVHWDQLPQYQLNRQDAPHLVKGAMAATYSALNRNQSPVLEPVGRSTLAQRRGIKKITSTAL

Series 1
Compound: CCN(CC)CC(=O)N1CCN(c2nc(NCc3nc4cc(Cl)c(Cl)cc4[nH]3)c3ncn(CC)c3n2)CC1
Read-out: enzyme activity
Mode: inhibitor
Technique: ADP detection
CDK7: Cyclin-dependent kinase 7 (CDK7, Homo sapiens, UniProt P50613)
Sequence of UniProt P50613 (whole entry, looked up): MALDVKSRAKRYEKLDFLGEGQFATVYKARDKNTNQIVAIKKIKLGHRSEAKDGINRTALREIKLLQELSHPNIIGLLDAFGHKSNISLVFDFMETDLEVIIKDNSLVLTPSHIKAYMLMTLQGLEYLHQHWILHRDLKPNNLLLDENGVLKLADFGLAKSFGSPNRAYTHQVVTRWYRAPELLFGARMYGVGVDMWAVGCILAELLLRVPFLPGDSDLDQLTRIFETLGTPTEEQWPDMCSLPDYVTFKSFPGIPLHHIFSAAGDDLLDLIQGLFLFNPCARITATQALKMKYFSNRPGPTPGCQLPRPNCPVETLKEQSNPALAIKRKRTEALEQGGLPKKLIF
CDK2: Cyclin-dependent kinase 2 (CDK2, Homo sapiens, UniProt P24941)
target	setting	inhibition
CDK7	10 µM	78%
CDK7	500 pM	3.2%
CDK7	41.2 nM	-4.6%
CDK7	1.5 nM	26.8%
CDK2	3.333 µM	0.8%
CDK2	0.3704 µM	8%
CDK13 (Homo sapiens, UniProt Q14004)	500 pM	-7.8%
CDK7	3.333 µM	64.5%

Series 2
SMILES: COc1cc(-c2nc3ccc(C(=O)NCCCN(C)C)cc3n2C2CCC2)cc(OC)c1OC
Read-out: binding
Technique: competition with immobilised ligand
Tested at: 1 µM
target	remaining binding
LATS1 (Homo sapiens, UniProt O95835)	95%
Receptor-type tyrosine-protein kinase FLT3, autoinhibited (FLT3, Homo sapiens, UniProt P36888)	93%
CSNK1G2 (Homo sapiens, UniProt P78368)	91%
RET (Homo sapiens, UniProt P07949, V804L)	83%
MAP3K1 (Homo sapiens, UniProt Q13233)	79%
Ribosomal protein S6 kinase alpha-3, N-terminal kinase domain (RPS6KA3, Homo sapiens, UniProt P51812)	100%
Tyrosine-protein kinase JAK2, JH1 (JAK2, Homo sapiens, UniProt O60674)	100%
TAOK3 (Homo sapiens, UniProt Q9H2K8)	100%
PRKCQ (Homo sapiens, UniProt Q04759)	83%
KIT (Homo sapiens, UniProt P10721, L576P)	100%
PTK2 (Homo sapiens, UniProt Q05397)	100%
NUAK2 (Homo sapiens, UniProt Q9H093)	91%
EGFR (Homo sapiens, UniProt P00533, T790M)	93%
MINK1 (Homo sapiens, UniProt Q8N4C8)	62%
PDPK1 (Homo sapiens, UniProt O15530)	100%
FLT3 (Homo sapiens, UniProt P36888, D835Y)	100%

Series 3
SMILES: CN1C(=O)C(O)(C(=O)O)Oc2cc(F)ccc21 (stereo not drawn)
organism	assay	test system	setting	scale	inhibition
Arabidopsis thaliana	root length	Col-0	25.0 µg/mL, 7 days, seed germination, dark	–	29.5%
Arabidopsis thaliana	hypocotyl length	Col-0, seedlings	50 µg/mL	–	28.6%
Arabidopsis thaliana	root length	Col-0	3.13 µg/mL, 7 days, seed germination, dark	–	7.6%
Arabidopsis thaliana	hypocotyl length	Col-0, seedlings	3.125 µg/mL	–	7.37%
Arabidopsis thaliana	root length	Col-0, seedlings	6.25 µg/mL	–	11.9%
Arabidopsis thaliana	hypocotyl length	Col-0	6.25 µg/mL, 7 days, seed germination, dark	–	13.1%
Arabidopsis thaliana	root length	Col-0, seedlings	100 µg/mL	relative to: water control	63.2%
Echinochloa crus-galli	fresh weight	–	150 g ai/ha, post-emergence treatment	–	52.3% and 49.8% and 56.4%
Setaria viridis	fresh weight	–	150 g ai/ha, pre-emergence treatment	–	15.2% and 16.1% and 17%
Zea mays	fresh weight	–	soil surface spray, 150 g ai/ha, 21 days, pre-emergence crop safety	–	16.5% and 21.6% and 17.4%

Series 4
SMILES: COCC1CC2C(CCC3C(O)CCC32)c2ccc(O)cc21 (stereo not drawn)
cell line	assay	setting	scale	log2 fold change
A549	DNA microarray, measured: GINS1	100 µM	relative to: untreated cells	-0.234
SK-OV-3	DNA microarray, measured: ACTA2	100 µM	relative to: untreated control	-0.71
SK-OV-3	microarray, measured: OLIG2	25 µM	relative to: untreated	0
A549	DNA microarray, measured: KIF20A	25 µM	relative to: untreated cells	-0.0302 and -0.0467 and 0.00913 and 0.00777 and -0.0242
PANC-1	microarray, measured: PIF1	25 µM	relative to: untreated	0.56
A549	DNA microarray, measured: CCL8	100 µM	relative to: untreated cells	0
SK-OV-3	DNA microarray, measured: UBB	100 µM	relative to: untreated	-0.111
A549	DNA microarray, measured: TMEM108	25 µM	relative to: untreated cells	1.41
SK-OV-3	DNA microarray, measured: TMEM108	100 µM	relative to: untreated cells	0.0863
PANC-1	microarray, measured: GZMK	25 µM	relative to: untreated	0
PANC-1	microarray, measured: OLIG2	100 µM	relative to: untreated	0
A549	microarray, measured: AURKA	25 µM	relative to: untreated	0.136
PANC-1	microarray, measured: OLIG2	25 µM	relative to: untreated	0

Series 5
Cell line: Gaucher fibroblasts L444P/L444P
Technique: 4-MUG hydrolysis, cell lysate
Tested at: 1 µM
Relative to: DMSO
SMILES	GCase activity
Ic1ccc(Nc2nc(NCCN3CCOCC3)nc(N3CC4CCC(C3)O4)n2)cc1	102% and 104% and 106%
Ic1ccc(Nc2nc(NCCN3CCOCC3)nc(N3CCSCC3)n2)cc1	100% and 98.4% and 88.7% and 103%
COc1ccc(Nc2nc(NCCN3CCOCC3)nc(N3CCOCC3)n2)cc1	101% and 99.6% and 99.1% and 98.2% and 96.3% and 98.5%
CCOc1ccc2nc(Sc3nc(N4CCOCC4)nc(N4CCOCC4)n3)sc2c1	110% and 114% and 107% and 109%
Ic1ccc(Nc2nc(NCCN3CCCCC3)nc(N3CCOCC3)n2)cc1	114% and 113% and 109% and 118% and 102% and 110%
Ic1ccc(Nc2nc(NCCN3CCOCC3)nc(N3CCNCC3)n2)cc1	106% and 102% and 104% and 109%
Fc1ccc(Nc2nc(NCCN3CCOCC3)nc(N3CCOCC3)n2)cc1	99.4% and 100% and 92.1% and 98.2% and 101% and 105%
Cc1ccc(Nc2nc(NCCN3CCOCC3)nc(N3CCOCC3)n2)cc1	108% and 109% and 111% and 115% and 97.1%

Series 6
Target: Sodium-dependent neutral amino acid transporter B(0)AT1 (SLC6A19, Homo sapiens, UniProt Q695T7)
Sequence of UniProt Q695T7 (whole entry, looked up): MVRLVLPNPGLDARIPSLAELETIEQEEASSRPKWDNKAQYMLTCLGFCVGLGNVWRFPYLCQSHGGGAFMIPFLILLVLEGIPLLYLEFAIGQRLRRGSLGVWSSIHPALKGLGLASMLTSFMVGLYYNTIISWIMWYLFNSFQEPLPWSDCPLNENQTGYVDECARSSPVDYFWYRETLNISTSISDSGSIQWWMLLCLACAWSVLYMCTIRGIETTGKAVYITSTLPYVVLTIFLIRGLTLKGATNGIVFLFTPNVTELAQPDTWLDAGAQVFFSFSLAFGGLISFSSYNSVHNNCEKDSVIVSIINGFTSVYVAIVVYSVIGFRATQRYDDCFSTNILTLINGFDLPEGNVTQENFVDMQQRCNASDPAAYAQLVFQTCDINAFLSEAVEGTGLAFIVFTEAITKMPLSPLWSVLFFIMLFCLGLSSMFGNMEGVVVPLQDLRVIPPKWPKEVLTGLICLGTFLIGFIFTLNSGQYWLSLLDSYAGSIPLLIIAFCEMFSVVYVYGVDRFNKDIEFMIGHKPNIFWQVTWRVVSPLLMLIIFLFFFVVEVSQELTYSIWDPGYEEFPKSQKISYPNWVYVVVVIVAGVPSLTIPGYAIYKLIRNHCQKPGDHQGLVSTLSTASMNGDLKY
Read-out: membrane potential
Technique: FLIPR membrane potential
Cells: CHO-BC cells
Tested at: concentration not given
Notes: first screen
Relative to: uninhibited control
Structure (SMILES)	normalised transport activity
Cc1cc(OC(C)(C)C(=O)NC(C)C)cc(C)c1Cl	1.05 and 1.24 and 1.12 and 1.14
Cc1cc(OCC(=O)Nc2ccccc2)cc(C)c1Cl	1.09 and 1.13 and 0.993 and 0.985 and 1.08
CC(C)NC(=O)COc1ccc(Cl)cc1	0.716 and 0.649 and 0.675 and 0.665
CNC(=O)COc1cc(C)c(Cl)c(C)c1	0.746 and 0.704 and 0.748 and 0.74
Cc1cc(Cl)ccc1OCC(=O)NC(C)C	0.928 and 0.909 and 0.889 and 0.996
Cc1cc(OCC(=O)CC(C)C)cc(C)c1Cl	1.17 and 0.945 and 0.951 and 0.941 and 1.09
CC(C)NC(=O)COc1ccc(Br)cc1	0.619 and 0.581 and 0.416 and 0.609 and 0.54
Cc1cc(OCC(=O)OC(C)C)cc(C)c1Cl	1.2 and 0.935 and 1.02 and 0.898 and 1.11
CCCCNC(=O)COc1cc(C)c(Cl)c(C)c1	1.03 and 0.991 and 1.07 and 0.976

Series 7
SMILES: C[C@@H]1CN(c2ccc(-c3cc(C(=O)NCCOCCOCCOCCOCCNC(=O)Cn4cc(-c5[nH]cc(C(=O)N[C@@H](CC(N)=O)c6ccc(F)c(Cl)c6)c5-c5ccc(Cl)cc5F)cn4)ccc3F)cc2NC(=O)c2c[nH]c(=O)cc2C(F)(F)F)C[C@H](C)N1C
Read-out: thermal unfolding
Technique: differential scanning fluorimetry
Tested at: 5.5 µM
Reading: higher = more unfolded
DCAF1: DDB1- and CUL4-associated factor 1 (DCAF1, Homo sapiens, UniProt Q9Y4B6)
Sequence of UniProt Q9Y4B6 (whole entry, looked up): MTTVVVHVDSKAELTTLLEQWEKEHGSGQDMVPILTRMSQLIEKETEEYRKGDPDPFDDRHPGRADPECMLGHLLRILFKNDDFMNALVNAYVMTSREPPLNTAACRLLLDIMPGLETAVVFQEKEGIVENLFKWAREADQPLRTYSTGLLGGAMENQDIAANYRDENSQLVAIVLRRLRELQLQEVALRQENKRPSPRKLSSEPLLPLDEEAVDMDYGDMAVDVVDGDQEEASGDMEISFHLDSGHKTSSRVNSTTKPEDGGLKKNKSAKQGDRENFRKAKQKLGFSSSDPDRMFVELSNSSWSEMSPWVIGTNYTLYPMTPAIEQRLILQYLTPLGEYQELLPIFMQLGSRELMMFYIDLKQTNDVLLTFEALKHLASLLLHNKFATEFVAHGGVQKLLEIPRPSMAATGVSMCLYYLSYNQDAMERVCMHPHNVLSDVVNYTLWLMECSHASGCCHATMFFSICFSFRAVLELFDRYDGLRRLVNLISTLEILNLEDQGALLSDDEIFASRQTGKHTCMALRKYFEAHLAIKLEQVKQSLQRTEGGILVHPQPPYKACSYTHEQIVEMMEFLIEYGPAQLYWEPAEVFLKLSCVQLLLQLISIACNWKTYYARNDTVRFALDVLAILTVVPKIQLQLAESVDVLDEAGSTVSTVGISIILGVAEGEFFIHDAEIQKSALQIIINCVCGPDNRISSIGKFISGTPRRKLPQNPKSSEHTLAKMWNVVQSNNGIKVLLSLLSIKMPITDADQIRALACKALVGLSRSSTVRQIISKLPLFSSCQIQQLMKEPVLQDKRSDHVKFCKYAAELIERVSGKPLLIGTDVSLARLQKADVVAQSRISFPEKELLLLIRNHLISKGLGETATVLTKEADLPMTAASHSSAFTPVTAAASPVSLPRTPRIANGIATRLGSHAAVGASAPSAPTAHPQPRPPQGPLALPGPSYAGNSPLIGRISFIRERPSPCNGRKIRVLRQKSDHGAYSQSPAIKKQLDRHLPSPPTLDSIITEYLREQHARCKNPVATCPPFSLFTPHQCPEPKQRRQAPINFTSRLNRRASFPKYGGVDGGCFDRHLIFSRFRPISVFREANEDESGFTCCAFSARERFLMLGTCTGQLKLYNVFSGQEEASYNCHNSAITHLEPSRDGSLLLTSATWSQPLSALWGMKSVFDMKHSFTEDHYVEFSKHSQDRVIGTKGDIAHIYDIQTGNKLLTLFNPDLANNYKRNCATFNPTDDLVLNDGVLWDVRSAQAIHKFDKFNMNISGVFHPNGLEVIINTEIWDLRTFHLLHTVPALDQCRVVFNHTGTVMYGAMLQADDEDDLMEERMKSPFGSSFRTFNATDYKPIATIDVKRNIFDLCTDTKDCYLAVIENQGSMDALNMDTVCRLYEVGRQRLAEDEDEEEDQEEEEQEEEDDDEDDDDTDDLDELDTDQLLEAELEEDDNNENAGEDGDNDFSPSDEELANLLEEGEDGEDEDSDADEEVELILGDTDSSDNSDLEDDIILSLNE
WDR5: WD repeat-containing protein 5 (WDR5, Homo sapiens, UniProt P61964)
target	setting	SYPRO Orange fluorescence [a.u.]
DCAF1	94.01 °C	30900
DCAF1	79.21 °C	44900
WDR5	38 °C	14400
WDR5	92.81 °C	40500
WDR5	32.6 °C	14400
DCAF1	80.01 °C	44200
WDR5	36.4 °C	14300
DCAF1	55.81 °C	21300
WDR5	63.81 °C	8290
DCAF1	54.61 °C	18700
WDR5	86.01 °C	41500

Series 8
Structure (SMILES): CCN1/C(=C/C=C2\CCCC(/C=C/C3=[N+](CC)c4ccccc4C3(C)C)=C2NCCCCCCCCN2CCC(Nc3nc4ccccc4n3Cc3ccc(F)cc3)CC2)C(C)(C)c2ccccc21
Cell line: U-87 MG
Tested at: concentration not given
Relative to: DMSO
assay	log2 fold change
measured: CSF3 mRNA	2.47
measured: PNPLA3 mRNA	-1.08
measured: HFE	-1.46
measured: STARD5 mRNA	-1.33
measured: FANCG mRNA	-1.29
measured: LTO1 mRNA	1.13
measured: HNMT mRNA	-1.38
measured: PTX3 mRNA	1.91
measured: KCNT2 mRNA	1.18
measured: YIPF4 mRNA	0.898
measured: ZNF805 mRNA	1.09
measured: MECOM mRNA	-1.38
measured: CCDC40 mRNA	1.43
measured: LMNA mRNA	-1.21
measured: MED12L mRNA	1.27
measured: RCAN1 mRNA	1.9

Further values, each from its own experiment
PKMYT1: Membrane-associated tyrosine- and threonine-specific cdc2-inhibitory kinase (PKMYT1, Homo sapiens, UniProt Q99640)
Sequence of UniProt Q99640 (whole entry, looked up): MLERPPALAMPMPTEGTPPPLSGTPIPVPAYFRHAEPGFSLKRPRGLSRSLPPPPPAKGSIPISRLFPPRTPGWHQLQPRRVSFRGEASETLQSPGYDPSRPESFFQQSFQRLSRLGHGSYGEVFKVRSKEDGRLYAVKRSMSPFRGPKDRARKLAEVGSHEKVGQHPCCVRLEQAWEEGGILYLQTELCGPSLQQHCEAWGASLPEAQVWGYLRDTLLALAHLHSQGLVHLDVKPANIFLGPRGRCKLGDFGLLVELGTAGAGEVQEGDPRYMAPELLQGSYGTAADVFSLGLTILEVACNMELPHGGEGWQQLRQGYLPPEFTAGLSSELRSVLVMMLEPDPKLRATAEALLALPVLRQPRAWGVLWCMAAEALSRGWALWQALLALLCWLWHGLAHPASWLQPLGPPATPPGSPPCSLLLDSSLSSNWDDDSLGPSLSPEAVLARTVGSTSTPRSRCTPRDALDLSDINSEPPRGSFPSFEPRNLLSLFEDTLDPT
SMILES	target or system	assay	test system	setting	scale	endpoint	value
Cc1ccnc(C)c1-c1cnc2[nH]c(-c3ccc(N4CCN(C)CC4)nc3C)nc2c1	PKMYT1	binding, HTRF	–	123.46 nM	–	inhibition	-18.8% and -19.7%
Cc1nc(C)c(C=[N+]([O-])C(C)(C)C)nc1C	–	Western blot	MPTP mouse model, substantia nigra cytosol	30 mg/kg, unit not given	relative to: β-actin	PGC-1α protein level	94.7 and 90.2 and 102 and 119
Cc1ccc(O)c(C)c1-c1cnc2[nH]c(-c3cnc(N4CCC(CN5CCN(c6ccc7c(c6)C(=O)N(C6CCC(=O)NC6=O)C7=O)CC5)CC4)nc3)cc2c1C#N (stereo not drawn)	–	–	CD-1 mouse, female, fasted, plasma	oral, 10 mg/kg	–	AUC(0-24h)	1090 ng·h/mL
Cc1ccc(O)c(C)c1-c1cnc2[nH]c(-c3cnc(N4CCC5(CC4)CC(N4CCN(c6ccc(N[C@H]7CCC(=O)N(C)C7=O)cc6F)CC4)CO5)nc3)cc2c1C#N (single isomer, unassigned)	PKMYT1	enzyme activity, inhibitor	–	37.04 nM	–	inhibition	86.5% and 85.7%
Cc1ccc(O)c(C)c1-c1cnc2[nH]c(-c3cnc(N)nc3)cc2c1C#N	PKMYT1	degrader, automated immunoblot	HCC1569	333.33 nM	–	degradation	-33.8%

Some of these lines once more (series 3):
organism	assay	test system	setting	scale	inhibition
Arabidopsis thaliana	hypocotyl length	Col-0, seedlings	50 µg/mL	–	28.6%
Arabidopsis thaliana	root length	Col-0	25.0 µg/mL, 7 days, seed germination, dark	–	29.5%
Arabidopsis thaliana	hypocotyl length	Col-0	6.25 µg/mL, 7 days, seed germination, dark	–	13.1%
Arabidopsis thaliana	root length	Col-0, seedlings	100 µg/mL	relative to: water control	63.2%
Arabidopsis thaliana	root length	Col-0, seedlings	6.25 µg/mL	–	11.9%
Zea mays	fresh weight	–	soil surface spray, 150 g ai/ha, 21 days, pre-emergence crop safety	–	16.5% and 21.6% and 17.4%
Echinochloa crus-galli	fresh weight	–	150 g ai/ha, post-emergence treatment	–	52.3% and 49.8% and 56.4%
Arabidopsis thaliana	hypocotyl length	Col-0, seedlings	3.125 µg/mL	–	7.37%
Arabidopsis thaliana	root length	Col-0	3.13 µg/mL, 7 days, seed germination, dark	–	7.6%
Setaria viridis	fresh weight	–	150 g ai/ha, pre-emergence treatment	–	15.2% and 16.1% and 17%
